# Measured values of several laboratories.
# Parts stem from different laboratories: compare values within a part only. Substitutions count along the parent as printed.

# Sample 1 — technique: RNA Bind-n-Seq; form: RNA; medium: in vitro; concentration: not given; notes: RNA with constant flanks, ends assumed; reference: input RNA pool; reading: higher = stronger binding
# Target: RING finger protein unkempt homolog, zinc fingers 1-6, GST-SBP tag (UNK, Homo sapiens, UniProt Q9C0B0, residues 30-357)
# Shared flanks, not repeated: GGGAGUUCUACAGUCCGACGAUC … CAACAGAGGAUUGAGCAUCA
# Target sequence (chain): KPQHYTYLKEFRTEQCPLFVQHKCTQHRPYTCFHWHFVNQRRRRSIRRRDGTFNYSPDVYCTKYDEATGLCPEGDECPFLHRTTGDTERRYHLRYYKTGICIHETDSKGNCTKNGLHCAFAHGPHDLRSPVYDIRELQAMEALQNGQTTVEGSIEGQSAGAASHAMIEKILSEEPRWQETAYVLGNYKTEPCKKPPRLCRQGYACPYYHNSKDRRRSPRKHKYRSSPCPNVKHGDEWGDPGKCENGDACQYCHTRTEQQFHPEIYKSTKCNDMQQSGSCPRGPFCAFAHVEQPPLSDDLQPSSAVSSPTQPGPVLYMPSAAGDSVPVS
Oligonucleotide,bound/input enrichment [ratio]
CAGUCUUUAAGUAUGCCAGCAUCUCUUGGAAGGAUGAACCAGGGUACUGCACGCCUUGCCCGUUUAAUGAAUCUUGGAAUGAGUUCUUCAUUGAAUCAACAAGGAGCUCAUAGUGCACUG,0.111
ACUGUCCAGGAGGUUCACCCAGGAGAACCUCCGUUCGACUUGGAGCUGUUCUACGUUAAGUACCGAAAUUUUUCCUACUUACAUUGUAAAUGGGCCACAAUGGAAGAGCUCGAAAAGGAU,0.198
AAGAAAAUCAGUACUCCUGUUGAUGUCAAUAACCGUGAGAUGAUGUUGAGCAUCAUCAACCGCUCUAUUACUACAAAAGUCAUCAGUCGGUGGUCCUCCUUGGCAUGCAACAUUGCACUG,0.091
AGAAAACAGAUAAAUAAUAUAUUUUAUAGGUUUAUUUAUGAAACAGAGCAUCAUAAUGGCACCGCAGAGUUACUGGAAAUAUUGGGAAGUAUAAUUAAUGGAUUUGCCUUACCACUAAAA,0.335
UUGGAAGGGCUUCACACCAAGCUGGGGAACAUCAAGACCUUAAACCUGGCAGGCAACCUCCCCGAGAGUCUGAGUGGCCUGCACAAGCUCUACUCACUGGUCAACCUGGAUCUCCGGGAC,0.121
GGGGCUGCUGAGAUAUCCUGUGCCCUGGCAGUUAGCCAAGAGGCGGAUAAGUGCCCCACCUCCGAACAGUAUGCCAUGAGAGCGUUUGCCGACGCACUGGAGGUCAUCCCCAUGGCCCUC,0.0907
GGCUGGGAAACUUCAAAGCCUUCCCAGUCCCCAGCACCUGCCUUUCUCACUACUUCUCUGGAGAUGGCCGGAGAGUUUCCUAGGUCUUUCCAGGGCAGCAUGUGAUUCAUUUGGGGAUGG,0.127
GGAGAAUGAAUCCUUUGGAUACUUUCAAGGACAUUCAAAUGUGAAAAUGAAUUUUUUACAACCCGAAGUAUUUAUAAUAAAAGACCAAACUUAUUUUUGUAAAUGAACCCAUAUGCUUUA,0.267
CACAGAGGAGACCUCCUGUUCCUCACAAAUUUCCGGGAAGACCCAAUCAGAGCUGGUGAAACCGUUGUUUUUAAAGUUGAAGGACGAGACAUUCCAAUAGUUCACAGAGUAAUCAAAGUU,1.24
GACGCUAGUGAUGGGACAGUACGACUUCGUGGACUACCAUUUGGUUGCAGCAAAGAGGAAACCGUUCAGUUCUUUCAAGGGUUGGAAAUCGUGCCAAAUGGGAUAACAUUGACGAUGGAC,0.195
GAUCGAACCUGGUCAUUGUGGAAAAAGCAGGAUACAAUCUCACCUGAGUUCGAGCCAGUUUUCCGUCUUUUUGCCUUCACCAACAAAAUUACUUCUGUGCACAGUAGAAUUAUUUGGUCU,0.844

# Sample 2 — target: UBE2O UBC core domain (UniProt Q9C0C9); technique: yeast two-hybrid; medium: yeast; notes: mostly zero background; reference: not given; reading: higher = stronger interaction
# Chain of UniProt Q9C0C9 (whole entry, looked up): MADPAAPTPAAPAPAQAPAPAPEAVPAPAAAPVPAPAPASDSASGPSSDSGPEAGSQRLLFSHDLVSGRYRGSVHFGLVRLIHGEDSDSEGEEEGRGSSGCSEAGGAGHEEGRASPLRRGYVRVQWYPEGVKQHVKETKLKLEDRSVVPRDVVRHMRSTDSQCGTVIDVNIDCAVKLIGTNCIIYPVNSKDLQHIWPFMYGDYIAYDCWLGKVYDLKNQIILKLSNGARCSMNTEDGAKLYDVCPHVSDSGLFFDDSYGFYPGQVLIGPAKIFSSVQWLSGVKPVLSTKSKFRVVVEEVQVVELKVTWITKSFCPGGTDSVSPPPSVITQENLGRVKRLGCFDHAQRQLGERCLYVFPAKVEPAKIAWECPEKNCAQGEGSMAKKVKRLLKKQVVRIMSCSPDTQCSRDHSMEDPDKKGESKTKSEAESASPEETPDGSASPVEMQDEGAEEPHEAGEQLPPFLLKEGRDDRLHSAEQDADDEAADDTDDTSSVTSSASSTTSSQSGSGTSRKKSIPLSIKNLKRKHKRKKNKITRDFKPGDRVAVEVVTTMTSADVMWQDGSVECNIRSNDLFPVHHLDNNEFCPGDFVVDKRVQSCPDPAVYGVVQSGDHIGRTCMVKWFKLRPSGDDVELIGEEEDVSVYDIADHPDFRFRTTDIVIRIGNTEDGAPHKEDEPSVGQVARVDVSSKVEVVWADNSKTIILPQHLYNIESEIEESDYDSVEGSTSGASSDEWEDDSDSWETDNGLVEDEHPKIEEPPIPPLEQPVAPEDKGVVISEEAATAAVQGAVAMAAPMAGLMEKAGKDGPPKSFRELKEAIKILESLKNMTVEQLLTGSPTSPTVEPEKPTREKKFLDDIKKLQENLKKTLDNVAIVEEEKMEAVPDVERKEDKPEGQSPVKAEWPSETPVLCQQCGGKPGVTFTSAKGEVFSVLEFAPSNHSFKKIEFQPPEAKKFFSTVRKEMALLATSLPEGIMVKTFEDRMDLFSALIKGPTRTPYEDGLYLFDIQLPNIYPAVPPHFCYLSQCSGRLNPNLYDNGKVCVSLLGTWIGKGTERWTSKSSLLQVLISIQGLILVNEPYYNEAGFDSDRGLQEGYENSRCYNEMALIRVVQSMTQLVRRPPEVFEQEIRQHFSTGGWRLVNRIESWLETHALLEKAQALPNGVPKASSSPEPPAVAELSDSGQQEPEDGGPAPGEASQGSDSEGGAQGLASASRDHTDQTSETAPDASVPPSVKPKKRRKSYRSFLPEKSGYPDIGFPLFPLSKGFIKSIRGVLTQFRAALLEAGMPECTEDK
# B1: RMND5B RING domain (UniProt Q96G75); chain MKCWYHSVFACPILRQQTSDSNPPIKLICGHVISRDALNKLINGGKLKCPYCPMEQNPADGK
# B2: NHLRC1 RING domain (UniProt Q6VVB1); chain MREAEISLLECKVCFEKFGHRQQRRPRNLSCGHVVCLACVAALAHPRTLALECPFCRRACRGCDTSD
# B3: RNF17 RING domain (UniProt Q9BXT8); chain SQPWGAAEIQCTRCGRRVSRSSGHHCELQCGHAFCELCLLMTEECTTIICPDCEVATAVNTRQR
# B4: UBE4B RING domain (UniProt O95155); chain KNARAEIDYSDAPDEFRDPLMDTLMTDPVRLPSGTIMDRSIILRHLLNSPTDPFNRQTLTESMLEPVPELKEQIQAWMREKQNSDH
# B5: RFPL3 RING domain (UniProt O75679); chain MAALFQEASSCPVCSDYLEKPMSLECGCTVCLKCINSLQKEPHGEDLLCCCCSMVSQRNKIRP
Sequence,lacZ reporter activity
FLSKVEETFQCICCQELVFRPITTVCQHNVCKDCLDRSFRAQVFSCPACRYDLGRSYAMQ (UHRF1 RING domain (UniProt Q96T88)),0
EIKDYKARLTCPCCNMRKKDAVLTKCFHVFCFECVKTRYDTRQRKCPKCNAAFGANDFHR (RNF20 RING domain (UniProt Q5VTR2)),0
B1 (RMND5B RING domain),0
B2 (NHLRC1 RING domain),0
GSEEEEIPFRCFICRQAFQNPVVTKCRHYFCESCALEHFRATPRCYICDQPTGGIFNPA (RNF113B RING domain (UniProt Q8IZP6)),0
EDVLSKDAGECAICLEELQQGDTIARLPCLCIYHKGCIDEWFEVNRSCPEHPSD (ZNRF2 RING domain (UniProt Q8NHG8)),0
B3 (RNF17 RING domain),0
B4 (UBE4B RING domain),0
VPADASPDSKCPICLDRFDNVSYLDRCLHKFCFRCVQEWSKNKAECPLCKQPFDSIFHSV (TOPORS RING domain (UniProt Q9NS56)),0
B5 (RFPL3 RING domain),0

# Sample 3 — technique: DHFR PCA, deep sequencing; medium: yeast; added: (+)-ABA 58 µM; reference: wild-type fitted maximum; reading: higher = stronger binding
# Target: ABI1, truncated, D143A, DHFR fusion (Arabidopsis thaliana)
# Notes: methotrexate growth selection, single substitutions
# Parent: PYL1, truncated, DHFR fusion (Arabidopsis thaliana); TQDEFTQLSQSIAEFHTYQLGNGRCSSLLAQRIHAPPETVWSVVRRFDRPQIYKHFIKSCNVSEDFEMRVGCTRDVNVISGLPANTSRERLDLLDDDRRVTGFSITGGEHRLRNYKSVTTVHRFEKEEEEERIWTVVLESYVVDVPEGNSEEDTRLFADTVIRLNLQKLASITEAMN
Substitution,relative binding score
I105D,-10.1%
V118D,14.4%
L138T,9.58%
F56H,27.8%
S87A,64.1%
V161M,47.7%
E130T,94.7%
G107Y,16.8%
Q31V,50.2%
T17Q,82.1%
N165Y,18.5%
D48N,60.7%
H16T,8.5%
Y115A,1.53%
E128V,83.3%
I57P,-28.9%
Y18E,65.1%
E125M,90.5%

# Sample 4 — technique: RNA Bind-n-Seq; form: RNA; medium: in vitro; concentration: 365 nM; reference: no-protein control; reading: higher = stronger binding
# Target: RNA binding protein fox-1 homolog 2, RRM domain, GST-SBP tag (RBFOX2, Homo sapiens, UniProt O43251-10, residues 100-194)
# Notes: natural RNA segment, single round, ends assumed
# Shared flanks, not repeated: GGGAGUUCUACAGUCCGACGAUC … UGGAAUUCUCGGGUGCCAA
# Residues (chain): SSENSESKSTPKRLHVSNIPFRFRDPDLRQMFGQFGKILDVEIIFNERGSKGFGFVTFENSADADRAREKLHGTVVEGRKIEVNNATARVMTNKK
Oligonucleotide,RBNS enrichment (R)
AUUUAGGGUGGACAAAUGCAUUACUGUUUUCAAACUGCUCACAUUUAUUCAGUAUUUCUCCAAGUUGCUAUCUACUCAGCCUUAUGAAUGCCCCUCGCUUUUCUAAGGCC,0.477
GACAGACUGGAGCCAUGGCCUUAGGCCAUAUAGCCUUACUAUCAAGUGUCUUCCUCCACGCGGAUUCCUGUACACCUUGAUCCAAAGCAGUGCUCCCAAGAGCAGCUCCU,0.242
AUCUUAGAGGAGGGAAGAAGAGAGAGAGACCCAAUGGUAGAACCAGAAUCAGGGAGAUGACUGAACUACUGAAAAACAGGUUCCCUUGUAUUUAGGAUCUUAAGGUGUAU,1.25
GGGCCCAGCAGUGUUCCUCCAUCAGCAUGUUAGACAACUACACAGUAUGUUGUUAGUUUUGAAAGACAUUCACUCAAGGAAAACACCAUCUCAACUUUGCCCGCUCACCA,1.02
UGAACCGCACUGGAGAAAAGGGGCAAGGUACCCCUGCUGAGGUGUAUGGGCUGCCAUCUCAGGCUGUCUUGAGGACCUGGGCUCCCUCUGCUACUCCCAGGAAAUGGGCU,0.466
AAAAUUAUUAGGGUUUUUACAUAACUCUGGAAUCUGUUGCUUUUAUAAACAAAUUGUUCAAUUUUAGGAAUUCCCCGUUACCUCCACAGUCAGUUGUGAGGGCCUGAUUA,0.808
CAGAGGCUCCCAACCCAUGCGCUACCAAAUACGCCUGGGCAGCCGGGCGGGCCAGCGGGCACCAGGACUGGUCUCCUCUGCGCUCUGAUUUGUUGACUGAAACUGUAAGG,0.343
GCUCCCUCUCAUCUAGCCCAUCAUUUCUUGGGGCCUGAACCCCAGUGGUCCAAAGUAUUGCUUGUGAAAUUUAAAAAAUGUGAAUAUGAUGUGGGGAUGGGCCUCUUCUA,1.44
UGGCUUGAAGAGUAACCAUCAGAGCUGAAUCAUCCAAGUAAGAACAAGUACCAUUGUUGAUUGAUAAGUAGAGAUACAUUUUUUAUGAUGUUCAUCACAGUGUGGUAAGG,0.296
AAGAUGAUGUUAAUUUGCUGUCAUUUCCUAAUUCAGGAUCUAUCAUCAAAUGAAACAUGAAAAAAACAGUGACUUUUAAGGUGAAAAGAGUUUCAAGCAUUCCAAAUAAA,0.373
UUGGAUGAAACAUUCAUUUUUACCUUGUGGAUGCUAGUGCUGUAGAGUUCACUGUUGUACACAGUCUGUUUUCUAUUUGUUAAGAAAAACUACAGCAUCAUUGCAUACUU,0.686
UCAGUAUAGAUUGCCAGUAUUGUUAAGAGUAUCCAAAGGCCUUUCUAGAUGGAGACAGAAUAACUGACUUGAACAUACAGUGUGCCUGUAAGUGUCCAGGCUCAGAGCUG,0.289

# Sample 5 — technique: protein binding microarray; form: double-stranded DNA, one strand shown; medium: in vitro; concentration: not given; reference: not given; reading: higher = stronger binding
# Target: Histone acetyltransferase KAT6A, both winged helices, GST fusion (KAT6A, Homo sapiens, UniProt Q92794, residues 1-181)
# Notes: 8-mer, flanks averaged, mean of 2 arrays, mostly near background
# Residues (chain): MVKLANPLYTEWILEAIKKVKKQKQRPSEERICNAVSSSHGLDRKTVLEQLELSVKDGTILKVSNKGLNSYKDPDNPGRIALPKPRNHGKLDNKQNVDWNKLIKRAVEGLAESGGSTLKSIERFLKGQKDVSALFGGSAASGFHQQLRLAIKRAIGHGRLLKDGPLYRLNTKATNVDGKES
Oligonucleotide,E-score
GAGGATCA,-0.118
GTCGAGCA,-0.118
AGCGCACG,0.271
ACAACCGC,0.208
ACCGTATG,0.154
AACATCGA,-0.0952
CCTATTAC,-0.148
CATAGGGG,-0.214
ACTAATTA,-0.0972
ATCCAAAA,-0.0565
ATAAGCCG,0.0881
CCTTGCGC,0.18
AGGCACAT,-0.127
AAGCTCGG,0.0223
GTGCACAA,-0.2
ACAAATGG,-0.0916
TAACTGGA,-0.204
ATCTCGTC,-0.0466

# Sample 6 — target: CCNB3, cyclin fold, Cln2 fusion (human); technique: yeast growth competition, sequencing; medium: yeast; notes: weak parent motif; reference: not given; reading: higher = stronger binding
# Parent: PKMYT1 docking peptide (human); SFEPRNLLSLFED
Substitution,normalised enrichment score
SFEPRNLLHLFED [S9H],0.354
KFEPRNLLSLFED [S1K],-0.103
SFEPRNLLSVFED [L10V],0.0102
SFEGRNLLSLFED [P4G],0.451
SFEPRNLNSLFED [L8N],0.544
SFEPRNILSLFED [L7I],0.414
SFECRNLLSLFED [P4C],0.505
SFEPRNLLSLKED [F11K],0.499
SFEPRNLLSLFHD [E12H],0.499
SFEPRGLLSLFED [N6G],0.516
SFFPRNLLSLFED [E3F],0.264
SFEPRNLLILFED [S9I],0.588
SFEPRNNLSLFED [L7N],0.249
SFEPRNLCSLFED [L8C],0.338
SFEPRNLLSLYED [F11Y],0.785
SFEPRNLLSLFWD [E12W],0.545
SFEPRNLLSLHED [F11H],0.427

# For quick reference, copied from above (sample 2):
Sequence,lacZ reporter activity
B4 (UBE4B RING domain),0
B5 (RFPL3 RING domain),0
B3 (RNF17 RING domain),0
VPADASPDSKCPICLDRFDNVSYLDRCLHKFCFRCVQEWSKNKAECPLCKQPFDSIFHSV (TOPORS RING domain (UniProt Q9NS56)),0
B1 (RMND5B RING domain),0
GSEEEEIPFRCFICRQAFQNPVVTKCRHYFCESCALEHFRATPRCYICDQPTGGIFNPA (RNF113B RING domain (UniProt Q8IZP6)),0
FLSKVEETFQCICCQELVFRPITTVCQHNVCKDCLDRSFRAQVFSCPACRYDLGRSYAMQ (UHRF1 RING domain (UniProt Q96T88)),0
EIKDYKARLTCPCCNMRKKDAVLTKCFHVFCFECVKTRYDTRQRKCPKCNAAFGANDFHR (RNF20 RING domain (UniProt Q5VTR2)),0
B2 (NHLRC1 RING domain),0
EDVLSKDAGECAICLEELQQGDTIARLPCLCIYHKGCIDEWFEVNRSCPEHPSD (ZNRF2 RING domain (UniProt Q8NHG8)),0
